Results collected from several papers.
Each line is one published result; not all experiments were run side by side. Values joined by “and” are separate records of one study, mostly repeats; a detail may differ. ± marks the error that the study gave.
PDE4D: 3',5'-cyclic-AMP phosphodiesterase 4D (PDE4D, Homo sapiens, UniProt Q08499)
NNMT: Nicotinamide N-methyltransferase (NNMT, Homo sapiens, UniProt P40261)
Chain of UniProt P40261 (whole entry, looked up): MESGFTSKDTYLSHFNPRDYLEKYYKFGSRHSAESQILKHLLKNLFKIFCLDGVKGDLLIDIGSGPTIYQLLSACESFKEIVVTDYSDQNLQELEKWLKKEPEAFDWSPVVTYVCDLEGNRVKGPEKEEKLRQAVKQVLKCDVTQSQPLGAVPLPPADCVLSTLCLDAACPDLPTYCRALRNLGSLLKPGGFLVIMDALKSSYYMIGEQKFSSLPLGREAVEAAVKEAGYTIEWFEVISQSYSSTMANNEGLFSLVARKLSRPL
JAK1: Tyrosine-protein kinase JAK1 (JAK1, Homo sapiens, UniProt P23458)
Uncharacterized protein: Uncharacterized protein (Trypanosoma brucei brucei, UniProt Q386Q8)
PIK3CD: Phosphatidylinositol 4,5-bisphosphate 3-kinase catalytic subunit delta isoform (PIK3CD, Homo sapiens, UniProt O00329)
Chain of UniProt O00329 (whole entry, looked up): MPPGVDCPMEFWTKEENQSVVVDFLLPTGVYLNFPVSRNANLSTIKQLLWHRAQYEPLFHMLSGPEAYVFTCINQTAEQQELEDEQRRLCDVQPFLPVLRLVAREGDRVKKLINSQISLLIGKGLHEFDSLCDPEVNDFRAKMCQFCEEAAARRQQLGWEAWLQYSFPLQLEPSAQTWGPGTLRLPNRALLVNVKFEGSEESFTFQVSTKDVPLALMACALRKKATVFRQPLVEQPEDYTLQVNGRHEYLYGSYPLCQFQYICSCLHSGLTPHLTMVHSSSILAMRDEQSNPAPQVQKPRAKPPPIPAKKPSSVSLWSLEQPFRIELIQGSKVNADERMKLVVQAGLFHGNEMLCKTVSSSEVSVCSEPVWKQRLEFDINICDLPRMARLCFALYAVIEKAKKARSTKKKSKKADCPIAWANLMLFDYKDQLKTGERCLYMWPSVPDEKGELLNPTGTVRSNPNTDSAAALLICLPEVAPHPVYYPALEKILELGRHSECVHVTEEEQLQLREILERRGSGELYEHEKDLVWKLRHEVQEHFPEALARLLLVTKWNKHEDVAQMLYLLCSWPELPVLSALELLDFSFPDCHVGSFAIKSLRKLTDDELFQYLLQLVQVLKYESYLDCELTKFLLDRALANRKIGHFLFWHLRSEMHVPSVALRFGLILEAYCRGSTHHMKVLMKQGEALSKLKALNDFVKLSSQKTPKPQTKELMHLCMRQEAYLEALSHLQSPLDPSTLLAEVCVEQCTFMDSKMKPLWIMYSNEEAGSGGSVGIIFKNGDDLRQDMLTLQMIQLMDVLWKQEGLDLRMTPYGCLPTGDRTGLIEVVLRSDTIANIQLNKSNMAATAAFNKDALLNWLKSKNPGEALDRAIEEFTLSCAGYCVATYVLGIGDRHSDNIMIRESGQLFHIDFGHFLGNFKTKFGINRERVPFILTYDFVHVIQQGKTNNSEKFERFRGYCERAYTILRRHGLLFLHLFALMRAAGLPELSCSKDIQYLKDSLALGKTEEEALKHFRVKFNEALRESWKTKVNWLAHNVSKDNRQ
SLC7A5: Large neutral amino acids transporter small subunit 1 (SLC7A5, Homo sapiens, UniProt Q01650)
Chain of UniProt Q01650 (whole entry, looked up): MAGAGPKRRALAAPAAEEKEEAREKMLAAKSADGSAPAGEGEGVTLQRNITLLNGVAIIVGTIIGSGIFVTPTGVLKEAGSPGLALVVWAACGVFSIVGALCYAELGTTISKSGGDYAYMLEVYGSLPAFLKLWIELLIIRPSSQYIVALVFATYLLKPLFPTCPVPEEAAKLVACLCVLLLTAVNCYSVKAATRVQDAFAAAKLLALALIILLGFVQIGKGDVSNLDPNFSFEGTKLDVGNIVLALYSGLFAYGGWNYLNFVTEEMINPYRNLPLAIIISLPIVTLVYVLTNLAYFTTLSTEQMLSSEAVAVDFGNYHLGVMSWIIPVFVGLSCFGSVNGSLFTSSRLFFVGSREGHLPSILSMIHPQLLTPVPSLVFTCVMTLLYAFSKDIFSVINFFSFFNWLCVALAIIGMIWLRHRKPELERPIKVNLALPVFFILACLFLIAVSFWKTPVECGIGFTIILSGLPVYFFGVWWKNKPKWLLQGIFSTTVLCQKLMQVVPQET
Gria1: Glutamate receptor 1 (Gria1, Rattus norvegicus, UniProt P19490)
Chain of UniProt P19490 (whole entry, looked up): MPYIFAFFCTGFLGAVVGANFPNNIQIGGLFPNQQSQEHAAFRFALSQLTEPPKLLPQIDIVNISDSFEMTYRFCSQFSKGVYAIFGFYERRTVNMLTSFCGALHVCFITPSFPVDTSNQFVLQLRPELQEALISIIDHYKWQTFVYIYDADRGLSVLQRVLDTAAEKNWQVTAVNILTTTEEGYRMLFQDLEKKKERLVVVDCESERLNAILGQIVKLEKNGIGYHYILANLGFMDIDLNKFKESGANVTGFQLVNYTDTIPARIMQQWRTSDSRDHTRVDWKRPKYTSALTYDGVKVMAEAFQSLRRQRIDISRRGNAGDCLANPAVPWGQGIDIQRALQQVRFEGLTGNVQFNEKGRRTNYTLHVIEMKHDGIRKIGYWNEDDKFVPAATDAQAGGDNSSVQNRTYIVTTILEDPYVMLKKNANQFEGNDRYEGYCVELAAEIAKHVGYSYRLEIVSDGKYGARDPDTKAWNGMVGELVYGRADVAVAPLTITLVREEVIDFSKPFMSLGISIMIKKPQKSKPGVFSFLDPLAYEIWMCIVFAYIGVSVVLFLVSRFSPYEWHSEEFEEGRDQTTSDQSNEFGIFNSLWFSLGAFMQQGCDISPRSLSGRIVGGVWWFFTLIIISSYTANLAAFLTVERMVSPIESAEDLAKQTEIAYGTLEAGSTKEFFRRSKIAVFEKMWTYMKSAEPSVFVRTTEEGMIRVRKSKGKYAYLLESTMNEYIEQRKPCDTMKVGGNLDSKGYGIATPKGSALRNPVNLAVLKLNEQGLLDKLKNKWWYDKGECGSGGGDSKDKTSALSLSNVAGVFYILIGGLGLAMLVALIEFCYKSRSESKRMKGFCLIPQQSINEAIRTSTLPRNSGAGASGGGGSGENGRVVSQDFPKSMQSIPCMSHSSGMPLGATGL
NTSR1: Neurotensin receptor type 1 (NTSR1, Homo sapiens, UniProt P30989)
Chain of UniProt P30989 (whole entry, looked up): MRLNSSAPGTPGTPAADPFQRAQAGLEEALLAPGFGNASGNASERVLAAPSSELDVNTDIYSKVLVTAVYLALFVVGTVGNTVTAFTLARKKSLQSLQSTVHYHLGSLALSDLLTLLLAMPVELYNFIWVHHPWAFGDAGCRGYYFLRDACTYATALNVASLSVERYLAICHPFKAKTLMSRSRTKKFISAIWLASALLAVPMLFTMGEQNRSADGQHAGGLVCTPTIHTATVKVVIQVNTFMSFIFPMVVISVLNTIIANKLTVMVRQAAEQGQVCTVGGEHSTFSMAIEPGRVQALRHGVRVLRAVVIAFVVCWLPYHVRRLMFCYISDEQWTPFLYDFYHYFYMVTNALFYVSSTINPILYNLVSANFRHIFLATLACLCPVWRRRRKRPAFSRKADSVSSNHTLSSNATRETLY
ppa: Inorganic pyrophosphatase (ppa, Escherichia coli, UniProt P0A7A9)
Chain of UniProt P0A7A9 (whole entry, looked up): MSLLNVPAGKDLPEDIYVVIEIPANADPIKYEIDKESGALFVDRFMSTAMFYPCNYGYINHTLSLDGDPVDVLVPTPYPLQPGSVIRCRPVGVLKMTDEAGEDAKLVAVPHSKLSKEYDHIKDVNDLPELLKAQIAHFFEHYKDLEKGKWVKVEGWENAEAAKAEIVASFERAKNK
ADRB2: Beta-2 adrenergic receptor (ADRB2, Homo sapiens, UniProt P07550)
Chain of UniProt P07550 (whole entry, unmodified, looked up): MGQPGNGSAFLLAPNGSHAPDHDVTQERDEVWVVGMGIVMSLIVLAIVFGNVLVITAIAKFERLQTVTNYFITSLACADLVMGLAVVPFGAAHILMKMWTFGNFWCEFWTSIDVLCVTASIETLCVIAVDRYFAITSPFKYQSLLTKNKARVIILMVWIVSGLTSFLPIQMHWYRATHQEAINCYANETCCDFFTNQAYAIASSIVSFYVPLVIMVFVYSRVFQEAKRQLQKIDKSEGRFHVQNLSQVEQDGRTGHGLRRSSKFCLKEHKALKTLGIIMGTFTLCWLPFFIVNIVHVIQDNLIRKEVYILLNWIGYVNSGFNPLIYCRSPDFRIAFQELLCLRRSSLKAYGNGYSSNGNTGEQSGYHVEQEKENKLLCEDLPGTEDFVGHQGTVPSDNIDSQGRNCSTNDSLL
glpG: Rhomboid protease GlpG (glpG, Escherichia coli, UniProt P09391)
Chain of UniProt P09391 (whole entry, looked up): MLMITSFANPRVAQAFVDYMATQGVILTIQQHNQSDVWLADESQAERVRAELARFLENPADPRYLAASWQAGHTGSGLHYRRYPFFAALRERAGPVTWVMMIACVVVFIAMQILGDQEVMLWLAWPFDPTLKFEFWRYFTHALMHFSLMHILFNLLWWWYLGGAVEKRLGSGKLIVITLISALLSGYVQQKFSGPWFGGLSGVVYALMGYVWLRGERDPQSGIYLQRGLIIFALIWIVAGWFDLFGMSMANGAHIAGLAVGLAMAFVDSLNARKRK
TDP1: Tyrosyl-DNA phosphodiesterase 1 (TDP1, Homo sapiens, UniProt Q9NUW8)
DNA dC->dU-editing enzyme APOBEC-3B C-terminal domain: DNA dC->dU-editing enzyme APOBEC-3B, C-terminal domain (Homo sapiens, UniProt Q9UH17)
Chain of UniProt Q9UH17 (whole entry, looked up): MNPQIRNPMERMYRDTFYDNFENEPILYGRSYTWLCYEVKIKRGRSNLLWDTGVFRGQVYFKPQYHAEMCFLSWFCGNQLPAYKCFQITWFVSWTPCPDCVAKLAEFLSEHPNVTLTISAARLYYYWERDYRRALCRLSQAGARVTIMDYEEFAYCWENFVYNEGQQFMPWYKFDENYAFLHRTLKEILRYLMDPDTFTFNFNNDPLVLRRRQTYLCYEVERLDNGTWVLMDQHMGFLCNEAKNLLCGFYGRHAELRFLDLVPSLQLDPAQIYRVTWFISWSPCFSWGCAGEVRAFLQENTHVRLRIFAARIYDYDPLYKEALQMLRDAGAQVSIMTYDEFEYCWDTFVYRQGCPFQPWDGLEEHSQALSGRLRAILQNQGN
MAOB: Amine oxidase [flavin-containing] B (MAOB, Homo sapiens, UniProt P27338)
Chain of UniProt P27338 (whole entry, looked up): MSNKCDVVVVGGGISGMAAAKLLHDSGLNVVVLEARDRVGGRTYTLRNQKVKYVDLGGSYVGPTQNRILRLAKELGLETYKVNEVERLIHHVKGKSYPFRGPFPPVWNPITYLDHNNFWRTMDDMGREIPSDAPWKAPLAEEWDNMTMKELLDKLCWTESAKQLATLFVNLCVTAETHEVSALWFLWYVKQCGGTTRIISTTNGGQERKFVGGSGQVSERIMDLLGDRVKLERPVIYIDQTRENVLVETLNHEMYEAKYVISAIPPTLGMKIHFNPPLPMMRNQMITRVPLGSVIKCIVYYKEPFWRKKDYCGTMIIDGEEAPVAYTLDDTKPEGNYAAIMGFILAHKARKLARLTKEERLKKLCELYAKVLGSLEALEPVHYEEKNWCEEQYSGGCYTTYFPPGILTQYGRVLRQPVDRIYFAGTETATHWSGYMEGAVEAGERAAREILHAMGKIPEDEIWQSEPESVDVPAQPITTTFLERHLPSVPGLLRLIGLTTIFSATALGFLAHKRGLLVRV

SMILES | target | assay | system | conditions | endpoint | result
Cc1ccc2c(c1C#Cc1ccc(O)cc1)C(c1ccc(O)cc1)(c1ccc(O)cc1)c1cc(O)ccc1-2 | PDE4D | enzyme activity, inhibitor | – | – | IC50 | 0.144 µM
OC[C@@H]1[C@@H](O)[C@H](O)[C@@H](O)[C@H]2O[C@@H]12 | Oligosaccharide 4-alpha-D-glucosyltransferase (agd31B, Cellvibrio japonicus, UniProt B3PEE6) | enzyme activity, inhibitor | – | 30 min preincubation, pH 6.5, 25 °C | IC50 | > 100 µM
CCc1cc(NC)ncc1C(N)=O | NNMT | enzyme activity, inhibitor | – | – | IC50 | 0.794 µM
C=CC(=O)N1[C@H](c2ccc3c(c2)OCO3)c2[nH]c3cc(C#Cc4ccccc4)ccc3c2C[C@H]1C(=O)OC | GrpE protein homolog 1, mitochondrial (GRPEL1, Homo sapiens, UniProt Q9HAV7) | target engagement, inhibitor, competitive gel-based ABPP | HCT-116 | – | IC50 | 2 µM
CCN(CC)CC(=O)Nc1cccc(-n2cc(-c3ccc4ccc(-c5cn(-c6cccc(NC(=O)CN(CC)CC)c6)nn5)cc4c3)nn2)c1 | JAK1 | enzyme activity, inhibitor | – | – | IC50 | > 10 µM
Cc1cccc2c1NC(=O)C2(O)CC(=O)c1ccc2c(c1)OCO2 (stereo not shown) | Uncharacterized protein | inhibitor, coupled colorimetric | Trypanosoma brucei | – | IC50 | 476 µM
O=C1/C(=N\c2ccccc2Br)c2ccccc2N1Cc1ccc([N+](=O)[O-])cc1 | PIK3CD | enzyme activity, inhibitor, ADP detection | – | – | IC50 | 0.0207 µM
CNc1sc(C(=O)c2ccc(OC)cc2)c(N)c1C#N | Uncharacterized protein | enzyme activity, inhibitor, coupled colorimetric | – | together with: E. coli pyrophosphatase coupling | IC50 | 109 µM
CN(C)c1nc(NCc2cc(Cl)c(F)cc2F)c(/N=N/c2ccc(Cl)cc2)c(N(C)C)n1 | Chitinase (OfChi-h, Ostrinia furnacalis, UniProt Q4AE59) | enzyme activity, inhibitor, fluorescence | – | – | IC50 | 0.32 µM
N[C@@H](Cc1c[nH]c2ccc(OCc3ccc(-c4ccoc4)cc3)cc12)C(=O)O | SLC7A5 | transporter uptake, inhibitor, radiometric | – | – | IC50 | 25.6 µM
O=C(O)Cc1cc2c(cc1C(=O)c1cccc(I)c1)OCO2 | Gria1 | glutamate-evoked current, inhibitor, whole-cell patch clamp | HEK293T, homomeric receptor | – | IC50 | 4.75 µM
O=C(CSc1nnc(-c2ccco2)c(-c2ccco2)n1)c1ccc(Cl)s1 | Uncharacterized protein | enzyme activity, inhibitor, coupled colorimetric | – | together with: E. coli pyrophosphatase coupling | IC50 | 91.1 µM
COC(=O)Cc1cc2c(cc1C(=O)c1ccc(Cl)cc1Cl)OCO2 | Gria1 | ion current, patch clamp | – | – | IC50 | 4.98 µM
Fc1ccc(Nc2nc(NC3CCCCC3)c3cc(Br)ccc3n2)cc1F | ADRB2 (Homo sapiens, UniProt P07550, C125V) | β-arrestin2 recruitment, antagonist, BRET | HEK293 | mutant C125V, together with: isoprenaline 1 µM | IC50 | 0.2 µM
NC(=O)c1ccc(C(=O)NOCc2ccc(Sc3cccc(Cl)c3)c(C(F)(F)F)c2)cc1 | CYP2C19 (Homo sapiens, UniProt P33261) | – | pooled human liver microsomes | 20 min | IC50 | > 30 µM
O=C1/C(=N\c2cccc(Cl)c2)c2ccccc2N1Cc1ccccc1 | PIK3CD | enzyme activity, inhibitor, ADP detection | – | – | IC50 | 0.0736 µM
COc1cc2nc(C3CC3)nc(N3CCC(c4ccccc4OC)CC3)c2cc1OC | NTSR1 | G protein activation, antagonist | – | – | IC50 | 5.58 µM
COc1ccc(C2=Nn3c(nnc3C3CCCCC3)SC2)cc1 | ppa | enzyme activity, inhibitor | – | – | IC50 | > 100 µM
FC(F)(F)c1cccc(Nc2nc(NC3CCCCC3)c3ccccc3n2)c1 | ADRB2 | cAMP production, antagonist, GloSensor | – | together with: isoproterenol 1 µM | IC50 | 9 ± 3 µM
O=C(CSc1nnc(-c2ccco2)c(-c2ccco2)n1)c1ccc(Br)cc1 | Uncharacterized protein | enzyme activity, inhibitor, coupled colorimetric | – | together with: E. coli pyrophosphatase coupling | IC50 | 54.3 µM
CC1C(=O)N(S(=O)(=O)c2ccccc2)C1c1ccccc1 (stereo not shown) | glpG | enzyme activity, inhibitor | – | – | IC50 | 1 µM
O=C(O)Cc1cc2c(cc1C(=O)c1ccccc1)OCO2 | Gria1 | ion current, patch clamp | – | – | IC50 | 5.63 µM
COc1ccc2c(c1OC)C(=O)N(c1nc3ccccc3s1)C2 | ppa | inhibitor, counter-screen, coupling enzyme alone | – | – | IC50 | > 30 µM
COc1ccccc1C1CCN(c2nc(C3(F)CCCC3)nc3ccc(N(C)CCO)cc23)CC1 | NTSR1 | G protein activation, antagonist | – | – | IC50 | 2.09 µM
O=C(CCNC(=O)CNC(=O)CC(c1ccccc1)(c1ccccc1)c1ccccc1)NC[C@@H]1CCCN(Cc2ccc3cc(F)ccc3c2)C1 | CHRM3 (Homo sapiens, UniProt P20309) | ligand displacement, radioligand | – | cell membranes | IC50 | 0.9 µM
Cc1ccc2nc(Nc3ccc(F)c(F)c3)nc(NC3CCCCC3)c2c1 | ADRB2 | β-arrestin recruitment, antagonist | – | – | IC50 | 0.36 µM
CN1CCC[C@@H]1C(=O)N[C@@H](Cc1ccc(-c2ccccc2)cc1)B(O)O | Proteasome component C5/PSMB5 (Homo sapiens, UniProt P20618+P28074) | enzyme activity, inhibitor | – | HEPES buffer, together with: Ac-WLA-AMC, PA28αβ | IC50 | 0.085 ± 0.015 µM
COc1ccccc1C1CCN(c2nc(C3(C(F)(F)F)CC3)nc3ccc(N(C)CCO)cc23)CC1 | NTSR1 | G protein activation, antagonist, BRET | – | – | IC50 | 0.628 µM

SMILES | target | assay | system | conditions | endpoint | result
COc1ccccc1/C=C1\C(=O)N(C)c2ccc(Nc3nc(C)nc4ccccc34)cc21 | PIK3CD | enzyme activity, inhibitor, ADP detection | – | – | IC50 | 0.542 µM
O=C(O)c1ccc(Nc2c(-c3ccccc3)nc3ccc(CON=Cc4cc([N+](=O)[O-])ccc4N4CCN(c5ccccc5)CC4)cn23)cc1 (mixture of isomers) | TDP1 | enzyme activity, inhibitor | – | 100 µM, unpurified compound | inhibition | 2%
Clc1ccc(Nc2nc(NC3CCCCC3)c3ccccc3n2)cc1Cl | ADRB2 | cAMP production, antagonist, GloSensor | – | together with: isoproterenol 1 µM | IC50 | > 50 µM
Cc1cccc(C2CC(=O)N2S(=O)(=O)c2cccc(Cl)c2)c1 (stereo not shown) | glpG | enzyme activity, inhibitor | – | – | IC50 | 5 µM
COC(CC1C(C)=CCC2C1(C)CCC1C(C)(C)C(O)C(O)CC12C)C(N)C(=O)O (stereo not shown) | SLC7A5 | transporter uptake | – | – | IC50 | 0.46 µM
O=C(O)c1ccc(Nc2c(-c3ccc(CON=CC4=C(Cl)c5ccccc5CC4)cc3)nc3cc(-c4ccccc4)ccn23)cc1 (mixture of isomers) | TDP1 | enzyme activity, inhibitor | – | 100 µM, unpurified compound | inhibition | 34.7%
Cc1cc(NC2CCN(C)CC2)ccc1-c1cc2c(N3CCC[C@H](C(=O)NCc4ccc(OC(F)(F)F)cc4)C3)ncnc2[nH]1 | STK4 (Homo sapiens, UniProt Q13043) | enzyme activity, inhibitor, mobility shift | – | – | IC50 | 6.43 µM
COc1ccc(Nc2nc(NC3CCCCC3)c3ccccc3n2)cc1OC | ADRB2 | β-arrestin recruitment, antagonist | – | – | IC50 | 14 µM
COc1ccc(-c2ccc(C(=O)N(C)CCO)cc2)c(OC)c1 | DNA dC->dU-editing enzyme APOBEC-3B C-terminal domain | deaminase activity, inhibitor, UDG-coupled deamination | – | – | IC50 | 979 ± 49 µM
CCOc1cc(CN2CCC3(CC2)CN(c2ccc(C(=O)O)cc2)C(=O)N3)c(C2CC2)cc1C | SSTR5 (Homo sapiens, UniProt P35346, W261A) | cAMP level, antagonist, GloSensor | AD293 | W261A mutant, bandwidth 6.48, together with: CST17 EC80 and forskolin | IC50 | 0.0339 µM
Cc1cc(O)c2c(c1)C(=O)c1c(O)c(O)cc(O)c1C2=O | MAOB | enzyme activity, inhibitor | – | – | IC50 | ~20 µM and 20.4 µM
CC(=O)NC1C(=O)N(c2ccccc2)N=C1C (stereo not shown) | ppa | inhibitor, counter-screen, coupling enzyme alone | – | – | IC50 | 33.7 µM
CCOc1ccc(C(=O)/C=C/c2ccc(C(C)C)cc2)cc1 | MAOB | enzyme activity, inhibitor | – | – | IC50 | 0.663 µM
CCn1nc(Cl)c2c1-c1cnc(N)c(c1)O[C@H](C)c1cc(F)ccc1-c1nn(C)cc1C2 | EPHA5 (Homo sapiens, UniProt P54756) | enzyme activity, inhibitor, radiometric | – | – | IC50 | 0.635 µM
OCC1CCCN(CCNc2cc(-c3ccccc3)nc3ccnn23)C1 (stereo not shown) | DNA dC->dU-editing enzyme APOBEC-3B (Homo sapiens, UniProt Q9UH17) | enzyme activity, inhibitor, HPLC | – | – | IC50 | 108 µM
Cc1nn(-c2cccc(N)c2)c(=O)c2cnc(Nc3ccc(N4CCNCC4)cc3)nc12 | PRKG2 (Homo sapiens, UniProt Q13237) | enzyme activity, inhibitor | – | – | IC50 | 1.98 µM
CCOc1ccc(-c2nnc3n2N=C(c2cc(OC)ccc2OC)CS3)cc1 | ppa | enzyme activity, inhibitor | – | – | IC50 | 449 µM
NC1=NCCc2ccccc21 | NNMT | enzyme activity, inhibitor | – | – | IC50 | 1.58 µM
COc1ccccc1C1CCN(c2nc(C3CC3)nc3c(C)cc(N(C)CCO)cc23)CC1 | NTSR1 | G protein activation, antagonist, BRET | – | – | IC50 | 6.49 µM
Cc1cnc(Nc2ccc3c(c2)CCN(C(=O)/C=C/C(=O)C(C)C)C3)nc1-c1cnn(C(C)C)c1 | JAK1 | enzyme activity, inhibitor, ADP detection | – | – | IC50 | 0.00746 µM
Cc1ccc(C(N)=O)cn1 | NNMT | enzyme activity, inhibitor | – | – | IC50 | 12.6 µM
Cc1nnc(Nc2ccc(O)cc2)nc1O | DNA dC->dU-editing enzyme APOBEC-3B C-terminal domain | deaminase activity, inhibitor, UDG-coupled deamination | – | – | IC50 | 114 ± 6 µM
C[C@@H](Nc1nc2c(cnn2C(C)(C)C)c(=O)n1Cc1cccc(F)c1)c1ccc(Cl)cc1 | PDE4D | enzyme activity, inhibitor | – | – | IC50 | 0.773 µM
N[C@@H](Cc1c[nH]c2ccc(OCc3ccccc3I)cc12)C(=O)O | SLC7A5 | transporter uptake, inhibitor, radiometric | – | – | IC50 | 16.6 µM
O=C(O)c1cccnc1-c1nc2cc(OC(F)(F)F)ccc2[nH]1 | Core-binding factor subunit beta, with RUNX1 Runt domain (Homo sapiens, UniProt Q13951) | Runt domain binding, inhibitor, FRET | – | – | IC50 | 48.9 ± 1.6 µM
NC(=O)c1ccc2nc(CN3CCCC3c3ccco3)cc(O)c2c1 (stereo not shown) | DNA dC->dU-editing enzyme APOBEC-3B C-terminal domain | deaminase activity, inhibitor, UDG-coupled deamination | – | – | IC50 | 458 ± 18 µM
COc1cc(C(=O)/C=C/c2ccc(C(C)C)cc2)cc(OC)c1OC | MAOB | enzyme activity, inhibitor | – | – | IC50 | 1.57 µM
